Assay results from different studies.
Parts stem from different laboratories: compare values within a part only. Substitutions count along the parent as printed.

Set 1 — method: DHFR PCA, deep sequencing; matrix: yeast; with: (+)-ABA 710 µM; baseline: wild-type fitted maximum; direction: higher = stronger binding
Target: ABI1, truncated, D143A, DHFR fusion (Arabidopsis thaliana)
Notes: methotrexate growth selection, single substitutions
Starting sequence: PYL1, truncated, DHFR fusion (Arabidopsis thaliana); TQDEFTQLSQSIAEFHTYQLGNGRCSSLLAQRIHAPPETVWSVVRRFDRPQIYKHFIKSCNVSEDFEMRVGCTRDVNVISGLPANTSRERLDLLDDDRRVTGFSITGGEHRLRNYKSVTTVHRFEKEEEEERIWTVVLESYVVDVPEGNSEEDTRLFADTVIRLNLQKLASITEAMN; partner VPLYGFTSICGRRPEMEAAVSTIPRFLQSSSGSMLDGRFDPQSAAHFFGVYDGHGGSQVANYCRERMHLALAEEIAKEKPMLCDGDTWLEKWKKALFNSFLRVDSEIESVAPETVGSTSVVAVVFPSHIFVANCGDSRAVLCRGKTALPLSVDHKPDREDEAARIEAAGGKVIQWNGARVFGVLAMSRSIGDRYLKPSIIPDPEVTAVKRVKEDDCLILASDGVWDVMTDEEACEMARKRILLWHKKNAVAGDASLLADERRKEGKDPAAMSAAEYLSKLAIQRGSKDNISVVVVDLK
`S80R` — result for “relative binding score”: 70.8%.
Under “relative binding score”, `V78W` is recorded as 38.4%.
For `N149G`, “relative binding score” read 78.4%.
Under “relative binding score”, `Q19C` is recorded as 99.8%.
`L82T` — result for “relative binding score”: 79%.
Under “relative binding score”, `F15T` is recorded as 70.9%.
Under “relative binding score”, `M68L` is recorded as 105%.
For `D95I`, “relative binding score” read 91.7%.
For `T101N`, “relative binding score” read 58.9%.
`S140C`: “relative binding score” 8.4%.
`R49P`: “relative binding score” -15.5%.
`K58P` — result for “relative binding score”: 29.9%.
`S59P`: “relative binding score” 33.8%.
For `T1F`, “relative binding score” read 101%.
`E67G` — result for “relative binding score”: 101%.
`C60R`: “relative binding score” 17.1%.
Under “relative binding score”, `V161N` is recorded as 30.8%.
For `F15Y`, “relative binding score” read 97.4%.
`T106Y` — result for “relative binding score”: 106%.
Under “relative binding score”, `S59Y` is recorded as 91.8%.
`L28P`: “relative binding score” 2.27%.
`A30W` — result for “relative binding score”: 99.7%.
`S26W` — result for “relative binding score”: 96.1%.
For `D153V`, “relative binding score” read 29.8%.
`Y141K`: “relative binding score” -16.5%.

Set 2 — method: protein binding microarray; form: double-stranded DNA, one strand shown; matrix: in vitro; tested at: not given; baseline: not given; direction: higher = stronger binding
Target: Histone acetyltransferase KAT6A, winged helix 2, GST fusion (KAT6A, Homo sapiens, UniProt Q92794, residues 85-181)
Notes: 8-mer, flanks averaged, mean of 2 arrays, mostly near background
Construct (chain): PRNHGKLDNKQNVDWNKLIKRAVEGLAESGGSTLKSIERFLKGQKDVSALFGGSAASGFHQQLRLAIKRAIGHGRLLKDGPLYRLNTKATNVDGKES
With `GCCTAACC` the E-score was -0.141.
`CTATTCAG` has an E-score of 0.0513.
`GCTAGTCA` gave an E-score of -0.146.
The E-score of `CCGTGAGA` is reported as -0.0433.
The E-score of `CGAGTCTC` is reported as -0.152.
`AAGTCGGA` has an E-score of 0.113.
For `CGTCCACA`, the E-score was -0.015.
With `AAAGTGCA` the E-score was -0.0924.
`GGTGTCTA` gave an E-score of -0.0466.
`CATCGATC` has an E-score of -0.152.
`TCGACGAA` gave an E-score of 0.165.
For `GATAAACA`, the E-score was 0.00509.
The E-score of `GCACATGC` is reported as 0.104.
`CTGGTGTA` gave an E-score of -0.243.
`ATTTAGCA` has an E-score of 0.109.
For `ATCAACAG`, the E-score was 0.085.
For `AGCATAAA`, the E-score was -0.0466.
`CGTGAAAG` has an E-score of -0.032.
With `AGACGACC` the E-score was -0.225.
`ACTCAAAT` has an E-score of -0.0554.
With `GGGCGATA` the E-score was 0.00202.
With `GCGATCCA` the E-score was 0.0387.
With `AATCGGTA` the E-score was -0.112.

Set 3 — method: Sort-seq; item: YFP reporter; matrix: E. coli; notes: PhoQ-PhoP variant library; with: 10 µM Mg2+; baseline: high Mg2+ state; direction: higher = stronger signaling
Molecule: PhoQ, residues 284 288 289 292 302 303 NLALSC
PhoP, residues 12 14 15 18 19 LHHYF (Escherichia coli, UniProt P23836) — fold induction: 1.01.
PhoP, residues 12 14 15 18 19 TPWTL (Escherichia coli, UniProt P23836) — fold induction: 1.72.
PhoP, residues 12 14 15 18 19 VGHWL (Escherichia coli, UniProt P23836) — fold induction: 1.69.

Set 4 — target: CCND1, cyclin fold, Cln2 fusion (human); method: yeast growth competition, sequencing; matrix: yeast; notes: weak parent motif; baseline: not given; direction: higher = stronger binding
Starting sequence: CENPC docking peptide (human); VKTKKRLNFDDKV
`K5R F9L` — result for “normalised enrichment score”: 0.0509.
Under “normalised enrichment score”, `K2A` is recorded as 0.314.
`K4A`: “normalised enrichment score” 0.512.
`L7A`: “normalised enrichment score” 0.147.
Under “normalised enrichment score”, `F9L` is recorded as 0.0902.
Under “normalised enrichment score”, `K12A` is recorded as 0.661.
Under “normalised enrichment score”, `T3A` is recorded as 0.528.
Under “normalised enrichment score”, `K5A L7A` is recorded as 0.128.
For `D10A`, “normalised enrichment score” read -0.312.
For `F9A`, “normalised enrichment score” read -0.0123.

Set 5 — method: RNA Bind-n-Seq; form: RNA; matrix: in vitro; tested at: 365 nM; baseline: no-protein control; direction: higher = stronger binding
Target: RNA binding protein fox-1 homolog 2, RRM domain, GST-SBP tag (RBFOX2, Homo sapiens, UniProt O43251-10, residues 100-194)
Notes: natural RNA segment, single round, ends assumed
`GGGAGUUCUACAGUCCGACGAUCCAAAAAAACCCACCAUUCUCAAAAAGAAAAACAAAAAGAAUGUAGCUUUUUAAGAACUACUUUAAUUGAAAGAUAAGAACUUUGCUAUCUUAUGCAGUGUAGUGUUCCCUUGGAAUUCUCGGGUGCCAA` — result for “RBNS enrichment (R)”: 0.513.
`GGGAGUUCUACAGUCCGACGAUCCUUUUUUAAAACCUAUUCAGGAUUAUUAGCCUGGACUUGGACACAGAGUUUGUAAAUAAAGGUGUCUGUGCAGAUUUUCCCACUGAUUUAUUUGUAUAAAAAUACUCAUCUGGAAUUCUCGGGUGCCAA`: “RBNS enrichment (R)” 1.1.
`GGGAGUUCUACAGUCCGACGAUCCCUUCCUGCUUUUCACCAGGAACUCUAGACUGGACGCAGUCUUCUUCCUACUGGCUGGGGUUUCUCCCUCACUCUGCCUCCCAAACACAAUAAAUACAUAGUUGCCCACCUGGAAUUCUCGGGUGCCAA` — result for “RBNS enrichment (R)”: 0.361.
For `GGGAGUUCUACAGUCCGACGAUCGGAGCUUGACUGUGGCUUCAGGUCCAGACCCUGAUCUCACUGGCAUCCCAAUACUGCAGGAGGGGUCUUCUCACAAAGCUCUGAGGGCUGGUCUUGACUAAGCAAUAAGAUGGAAUUCUCGGGUGCCAA`, “RBNS enrichment (R)” read 0.415.
`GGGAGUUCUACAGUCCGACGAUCCCUCAGCCCAUCUUGCUCCCUCUUCAGCCCGCUGAGGAGCUUUCUUGGGCUGCCCCCAUCUCUCCCAACAAGGUGUACAUAUUCUGCGUAGAUGCUAGACCAACCAGCUUUGGAAUUCUCGGGUGCCAA`: “RBNS enrichment (R)” 0.416.
For `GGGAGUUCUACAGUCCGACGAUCCAAACCAGUUAGCAACACAAUAUUUAUGUUUAAAUUUAUCAUUAAAGUACAACAGUCAUUUAACACAGGUGUAACUAUGGAUCAUUUUCUAAUGUGUAAUUUUGACUUCUUGGAAUUCUCGGGUGCCAA`, “RBNS enrichment (R)” read 0.493.
`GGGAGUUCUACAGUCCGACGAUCAGCCUUUUAUUGAGUGGGGCAAGUGCUGGGCUGUGGUCGUGCCCUGACAGCAUCUUCCCCAGGCAGCGGCUCUGUGGAGGAGGCCAUACUCCCCUAGUUGGCCACUGGGGUGGAAUUCUCGGGUGCCAA`: “RBNS enrichment (R)” 0.497.
Under “RBNS enrichment (R)”, `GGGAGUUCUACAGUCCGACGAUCAACUAUUUACAGAACAUGCAUCCUUAAACUGUGACUUCUCACCUAGUGCAGAACUUUUACCAGGCUGUAAAAGCAAAACCUCGUAUCAGCUCUGGAACAAUACCUGCAGUUGGAAUUCUCGGGUGCCAA` is recorded as 0.361.

For quick reference, copied from above (set 2):
With `AGACGACC` the E-score was -0.225.
`CATCGATC` has an E-score of -0.152.
With `GCGATCCA` the E-score was 0.0387.
For `AGCATAAA`, the E-score was -0.0466.
